{"data": "Assay results collected from several papers", "target": "Serine/threonine-protein kinase Nek3 (NEK3, Homo sapiens, UniProt P51956)", "One construct used (P51956 1-506)": "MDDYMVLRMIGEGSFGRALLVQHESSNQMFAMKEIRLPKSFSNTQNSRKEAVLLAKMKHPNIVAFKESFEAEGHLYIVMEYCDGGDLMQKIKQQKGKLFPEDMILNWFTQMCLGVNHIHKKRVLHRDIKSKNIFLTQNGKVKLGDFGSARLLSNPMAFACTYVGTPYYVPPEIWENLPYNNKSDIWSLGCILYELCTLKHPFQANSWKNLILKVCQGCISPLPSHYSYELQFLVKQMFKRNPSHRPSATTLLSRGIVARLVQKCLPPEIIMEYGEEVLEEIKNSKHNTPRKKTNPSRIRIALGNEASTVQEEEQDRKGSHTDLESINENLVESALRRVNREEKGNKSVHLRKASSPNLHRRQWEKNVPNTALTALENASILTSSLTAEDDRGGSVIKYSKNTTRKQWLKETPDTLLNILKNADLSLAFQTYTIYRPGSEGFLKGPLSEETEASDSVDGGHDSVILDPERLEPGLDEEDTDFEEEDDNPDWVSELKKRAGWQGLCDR", "note": "Lines come from different studies, so protocols differ."}
{"SMILES": "O=C=[N][Ru-4]123([n]4c5ccc(O)cc5c5c6c(c7cc(F)c[n+]1c7c54)C(=O)NC6=O)[S+]1CC[S+]2CC[S+]3CC1 (centres unmarked)", "test": "enzyme activity", "conditions": "100 nM, human enzyme, together with: 10 µM ATP", "scale": "relative to: untreated", "measurement": "remaining activity", "result": "97%"}
{"SMILES": "CNC(=O)C1CCN(c2cc(C)c(F)cc2NC(=O)c2ccc(-c3cc(O)ccc3C)c(C)c2)CC1", "test": "binding, competition with immobilised ligand", "conditions": "1 µM", "measurement": "remaining binding", "result": "88%"}
{"SMILES": "COc1ccc(NC(=O)Nc2ccc3c(c2)C(=O)N(C(C)CO)CC(C)C(CN(C)Cc2ccc4c(c2)OCO4)O3)cc1 (centres unmarked)", "test": "kinase activity, KinaseProfiler", "conditions": "0.03 µM, species human", "scale": "relative to: control", "measurement": "remaining activity", "result": "105%"}
{"SMILES": "COc1ccc(C(=O)/C=C/c2ccccc2-c2c[nH]c3ccc(C#N)cc23)c(O)c1", "test": "enzyme activity, inhibitor", "conditions": "20 µM", "measurement": "inhibition", "result": "-1%"}
{"SMILES": "Cc1cnc2nc1Nc1cccc(c1)COC/C=C/COCc1cc(ccc1OCCN1CCOCC1)N2", "test": "binding", "conditions": "0.1 µM", "measurement": "remaining binding", "result": "89%"}
{"SMILES": "Cc1ccc(-c2c(/C=C(\\C#N)C(=O)NC(C)C)n(CCCO)c3ncnc(N)c23)cc1", "test": "cell-free assay, competition with immobilised ligand", "conditions": "1 µM", "measurement": "remaining binding", "result": "73%"}
{"SMILES": "CCN1CCN(Cc2ccc(C(=O)Nc3ccc(C)c(NCc4cnc5[nH]ccc5c4OC)c3)cc2C(F)(F)F)CC1", "test": "binding, competition with immobilised ligand", "conditions": "1 µM", "measurement": "remaining binding", "result": "47%"}
{"SMILES": "O=C(Cc1ccc(OCc2ccccc2)cc1)NC1(C(=O)O)CCN(C(=O)c2ccc(-c3cccc(Cl)c3)cc2)CC1", "test": "enzyme activity, inhibitor", "conditions": "10 µM", "measurement": "activity vs control", "result": "77%"}
{"SMILES": "COc1c(OCCCN2CCOCC2)ccc2c1N=C(NC(=O)c1cnc(N)nc1)N1CCN=C21", "test": "kinase activity, inhibitor", "conditions": "1 µM", "scale": "relative to: untreated control", "measurement": "remaining activity", "result": "105%"}
{"SMILES": "CCn1cc(C(=O)O)c(=O)c2c(N)c(F)c(NC3CCCCC3)cc21", "test": "kinase activity", "conditions": "0.1 µM, together with: ATP at Km", "measurement": "inhibition", "result": "4.8%"}
{"SMILES": "NC(=O)[C@@H](O)C[C@H]1CCc2sc3ncnc(O[C@H]4CC[C@H](N5CCOCC5)CC4)c3c21", "test": "enzyme activity, inhibitor", "conditions": "10 µM", "measurement": "inhibition", "result": "-21%"}
{"SMILES": "CN1C[C@@H](c2c[nH]c3cc(Br)ccc23)NC[C@@H]1c1c[nH]c2cc(Br)ccc12", "test": "enzyme activity, inhibitor", "conditions": "10 µM", "measurement": "remaining activity", "result": "102%"}
{"SMILES": "Nc1ncc(-c2cc(-c3cnn(CC(F)(F)F)c3)ncc2F)nc1C(=O)NC1CNCC(F)C1 (centres unmarked)", "test": "enzyme activity", "conditions": "1 µM", "scale": "relative to: DMSO control", "measurement": "remaining activity", "result": "80%"}
{"SMILES": "COc1cc(Nc2nccc(-c3cnn4nc(OC)ccc34)n2)cc(C(F)(F)F)c1", "test": "binding, competition with immobilised ligand", "conditions": "1 µM", "measurement": "remaining binding", "result": "70%"}
{"note": "For quick reference, copied from above:"}
{"SMILES": "NC(=O)[C@@H](O)C[C@H]1CCc2sc3ncnc(O[C@H]4CC[C@H](N5CCOCC5)CC4)c3c21", "test": "enzyme activity, inhibitor", "conditions": "10 µM", "measurement": "inhibition", "result": "-21%"}
{"SMILES": "CCN1CCN(Cc2ccc(C(=O)Nc3ccc(C)c(NCc4cnc5[nH]ccc5c4OC)c3)cc2C(F)(F)F)CC1", "test": "binding, competition with immobilised ligand", "conditions": "1 µM", "measurement": "remaining binding", "result": "47%"}
